Assay results pooled from the literature.
Protocols differ between the studies behind these lines. Values joined by “and” are separate records of one study, mostly repeats; a detail may differ. ± gives the spread as reported.

CCN1/C(=C/C(C)=O)Sc2ccc(F)cc21 — QT interval (cynomolgus monkey; oral, 100 mg/kg, 2 h post-dose): 239 ± 28 ms
O=C(OC(C(F)(F)F)C(F)(F)F)N1CCN(Cc2cccc(Oc3ccccc3)c2)CC1 — Ktrans (PET blocking study; rhesus monkey, brain HIP; 0.1 mg/kg, compound pretreatment, with: [18F]T-401 tracer): 0.0496 min⁻¹
CC/C(=C(\c1ccccc1)c1ccc(OCCN(C)C)cc1)c1ccccc1 — mean blood pressure (male Hartley guinea pigs, anaesthetized; intravenous, 10 mg/kg over 10 min, after infusion): 34 ± 0.3 mmHg
CO[C@@H]1[C@H](OC(=O)N2CC(CCN3CCOCC3)C2)CC[C@]2(CO2)[C@H]1[C@@]1(C)O[C@@H]1CC=C(C)C — prothrombin time (humans; subcutaneous, 1.8 mg twice weekly for 4 weeks, day 28; baseline: baseline): 0.12 ± 0.44 s
C[C@@H]1COCCN1c1cc(C2([S@](C)(=N)=O)CC2)nc(-c2cc[nH]c3nccc2-3)n1 — Constipation incidence (Japanese advanced solid tumour patients; oral, 160 mg twice daily, any grade): 0%
CC(C)(C(=O)N1CCOc2c(C#N)cncc2C1)C(F)F — subjects with TEAE (refers to: general and administration site disorders; human, both sexes; oral, 10 mg once daily, 14 days, multiple ascending dose): 0%
N#CC(Cc1ccc(O)cc1)c1ccc(O)cc1 (stereo not shown) — aglycone share of AUC(0-inf) (rat, Long-Evans, female, serum; subcutaneous, 2 mg/kg single dose): 13%
Cl.[2H]C([2H])([2H])CC(=O)c1cnc(NC(=O)C2CC2)cc1Nc1cccc(-c2ncn(C([2H])([2H])[2H])n2)c1OC — Tmax (median; human; oral, 17.5 mg single dose, fasted, liquid): 1.13 h
C[C@@H]1CN(c2c(F)c(N)c3c(=O)c(C(=O)O)cn(C4CC4)c3c2F)C[C@H](C)N1 — mean blood pressure (male Hartley guinea pigs, anaesthetized; intravenous, 3 mg/kg group, baseline before infusion): 34 ± 0.2 mmHg
NC1(C(=O)N[C@@H](CCO)c2ccc(Cl)cc2)CCN(c2nc[nH]c3nccc2-3)CC1 — incidence of maculopapular rash (metastatic CRPC patients; 400 mg b.i.d., any grade, treatment-related, with: enzalutamide 160 mg daily): 14.3%
CCCC1CCC(c2ccc(OCC)c(F)c2F)CC1 (stereo not shown) — mean serum concentration (human mother-newborn pairs, female fetuses, cord serum): 0.43 ng/mL
O=C(Nc1ccc(OC(F)(F)Cl)cc1)c1cnc(N2CC[C@@H](O)C2)c(-c2ccn[nH]2)c1 — grade ≥3 event rate (per patient, refers to: hemoglobin decrease; human patients; oral, dose not given): 0.7%
O=C(Nc1nc2cccc(-c3ccc(CN4CCS(=O)(=O)CC4)cc3)n2n1)C1CC1 — treatment-emergent adverse events (refers to: immune system disorders; human rheumatoid arthritis patients; oral, 200 mg once daily, 4 weeks, regardless of relatedness): 0%
Cc1cccc(CNC(=O)c2cn(CCNC(=O)c3ccccc3Sc3c([N+](=O)[O-])ncn3C)c3cc4c(cc3c2=O)OCO4)n1 — remaining compound (human, whole blood; 1 µM, 2 h): 81.9%
Cc1nc2cccc(OCC(C)(C)C(=O)NC(C)C)c2c(N)c1C(=O)O — micronucleated PCE per 14000 PCE (male Swiss albino CD-1 mouse, bone marrow; oral, 500 mg/kg, 48 h): 8
O=C(/C=C/c1ccccc1)Nc1ccc(C(=O)Nc2nccs2)cc1 — maximum haemolysis (sheep erythrocytes; 1 h, pH 7.5): 17.6%
COc1c(N2C[C@@H]3CCCN[C@@H]3C2)c(F)cc2c(=O)c(C(=O)O)cn(C3CC3)c12 — mean blood pressure (male Hartley guinea pigs, anaesthetized; intravenous, 5 mg/kg over 10 min, after infusion): 31 ± 0.2 mmHg
CNC(=O)c1ccc(-c2cnc3ncc(Cc4ccc5ncccc5c4)n3n2)cc1F — upper abdominal pain incidence (all grades) (CTCAE v4.0, any causality; human cancer patients; oral, 600 mg twice daily, expansion, other tumours, RP2D): 6%
CNCCOC12CC3(C)CC(C)(CC(Cn4ncc(-c5ccc(N6CCc7cccc(C(=O)Nc8nc9ccccc9s8)c7C6)nc5C(=O)O)c4C)(C3)C1)C2 — QTcV interval change (beagle dog, male, anaesthetised; intravenous bolus, 0.03 mg/kg, 5 min; baseline: baseline): -15 ms
CNCc1ccc(-c2[nH]c3cc(F)cc4c3c2CCNC4=O)cc1 — constipation incidence (patients; oral, 840 mg twice daily, all grades): 0%
COc1ccc2c(=O)n(C)c(-c3ccccc3)nc2c1 — tissue concentration (Sprague-Dawley rat, male, stomach; oral, 30 mg/kg, 4 h): 11.2 ng/mL
C[N+]1(C)[C@@H]2C[C@@H](OC(=O)C(O)(c3cccs3)c3cccs3)C[C@H]1[C@@H]1O[C@@H]12 — fraction unbound (equilibrium dialysis; dog, plasma): 0.81
COc1cc(N2CCC3(CCN(C)CC3)CC2)ccc1Nc1ncc(Cl)c(Nc2ccccc2P(C)(C)=O)n1 — Q/F (population PK model; human; oral, final model): 15.5 L/h
Cc1cc(Nc2cc3ncccc3c(N[C@@H]3C[C@H]4CC[C@@H](C3)N4CCC#N)n2)n[nH]1 — papular rash incidence (healthy human subjects; oral, 100 mg, 14 days, multiple ascending dose): 17%
Cc1cc(C(=O)NC(C)(C)COc2cccc3c2C(N)=NS(=O)(=O)N3)cc(C)n1 — plasma peak area (LC-MS metabolite profiling; Sprague-Dawley rat, both sexes, plasma; oral, 100 mg/kg of parent drug, 8 (unit not given); higher = more metabolite): 88400 a.u.
CCN1CCN(Cc2ccc(Nc3ncc(F)c(-c4cc(F)c5nc6n(c5c4)[C@H](C)CCC6)n3)nc2)CC1 — Tmax (human, Phase Ib patients, plasma; 300 mg, multiple doses, median, with: fulvestrant): 4.94 h
CCc1c(-c2ccccc2)c(-c2ccccc2)nn1-c1ccccc1-c1cccc(OCC(=O)O)c1 — AUMC(0-t) (Sprague-Dawley rat; intravenous, dose not given): 2750 h²·ng/mL and 2020 h²·ng/mL and 1570 h²·ng/mL
O=C(O)CCC(=O)O.[2H]C([2H])([2H])Oc1cc(C)c2[nH]ccc2c1CN1CC[C@@H](C2CC2)C[C@H]1c1ccc(C(=O)O)cc1 — CLss/F (human, plasma; 50 mg twice daily, day 10, multiple ascending dose): 2.16 L/h
O=C(CCCN1CCC(O)(c2ccc(Br)cc2)CC1)c1ccc(F)cc1 — maximum haemolysis (sheep erythrocytes; 1 h, pH 7.5): 4.45%
O=C(CCCN1CCC(O)(c2ccc(Cl)cc2)CC1)c1ccc(F)cc1 — mean blood pressure (male Hartley guinea pigs, anaesthetized; intravenous, 0.01 mg/kg over 10 min, after infusion): 36 ± 0.1 mmHg
O=C(N/N=C/c1ccccc1O)c1ccncc1 — stability (ADS buffer; 57 µM, 12 h, 5 °C, post-preparative, autosampler): 99.4%
COc1cccc(OC)c1-c1cc(C(=O)NC2(C(=O)O)C3CC4CC(C3)CC2C4)nn1-c1ccc(C(=O)N(C)CCCN(C)CCCN(C)C(=O)CN2CCN(CC(=O)[O-])CCN(CC(=O)[O-])CCN(CC(=O)[O-])CC2)cc1C(C)C.[177Lu+3] (stereo not shown) — tissue uptake (mouse, HT-29 xenograft, lung; 72 h post injection): 0.16 %ID/g
Cc1cc(-c2ccc3cc[nH]c(=O)c3c2)ccc1O[C@H]1O[C@H](CO)[C@@H](O)[C@H](O)[C@@H]1O — C0 (male Sprague-Dawley rat, plasma; intravenous, 3 mg/kg, group mean): 504 ng/mL
CNC(=O)c1cc(Oc2ccc(NC(=O)Nc3cc(C(C)(C)C)nn3-c3ccc4ncccc4c3)c(F)c2)ccn1 — patients with visual abnormality AE (refers to: worst grade 1; human; oral, dose not given, cycles 1 and 2, High Cmax subgroup): 11%
Cc1c(-c2ccc(N3CCc4cccc(C(=O)Nc5nc6ccccc6s5)c4C3)nc2C(=O)O)cnn1CC12CC3(C)CC(C)(C1)CC(OCCNCC[C@H](O)CO)(C3)C2 — QTcV interval change (beagle dog, male, anaesthetised; intravenous infusion, 0.3 mg/kg/min, 90 min; baseline: vehicle): 16 ms
Cn1c(C(F)(F)F)cc(=O)n(-c2cc(Oc3cccnc3OCC(=O)O)c(Cl)cc2F)c1=O — Tmax (beagle dog, male, plasma; oral capsule, 300 mg/kg/day epyrifenacil, week 13, 90-day study): 2.5 h
CC(C)[C@@H](CS(=O)(=O)C(C)C)N1C(=O)[C@@](C)(CC(=O)O)C[C@H](c2cccc(Cl)c2)[C@H]1c1ccc(Cl)cc1 — AUC(0-inf) (FVB mice Abcg2 knockout, spinal cord; intravenous, 20 mg/kg): 56.9 ± 4.5 ng·h/mL
N#Cc1ccc2c(c1)[C@H]1CCCN(C(=O)c3ccc4[nH]cnc4c3)[C@H]1C2 — total testosterone level (human males; 240 mg, day 7): 15.6 nmol/L
Cc1nc(Nc2ncc(C(=O)Nc3c(C)cccc3Cl)s2)cc(N2CCN(CCO)CC2)n1 — related TEAEs (human; oral, 100 mg): 100%
Cc1ccc(Sc2ccccc2N2CCNCC2)c(C)c1 — participants with TEAE (refers to: Thirst; healthy adult men; oral, 5 mg daily, 12 days): 0%
CCN1CCN(Cc2ccc(NC(=O)c3ccc(C)c(NC(=O)c4cncc(-c5cccs5)c4)c3)cc2C(F)(F)F)CC1 — mean plasma concentration (LC-MS/MS; C57BL/6 mouse, plasma; intraperitoneal, 30 mg/kg single dose, 0.25 h): 680 ng/mL
COc1ccnc(C(=O)NC(CO)C(=O)O)c1O (racemic) — DT50 (water/sediment; 20 °C, whole system, geometric mean, aerobic dark): 49 days
CC(C)Nc1ccnc(Nc2ccccc2-c2ccccc2)n1 — Papp (A to B) (MDCKII-WT cells; 10 µM, pH 7.4): 17.2 ± 2.16 ×10⁻⁶ cm/s
COc1cc2[nH]c(C)c(-c3ccc(N(C)C)nc3)c(=O)c2cc1Cl — Papp (PAMPA; pH 7.4): 137 ×10⁻⁶ cm/s
CCC(CC)C(=O)Oc1cccc(C(O)CCN)c1.O=CO (stereo not shown) — ERG b-wave amplitude (scotopic ERG; BALB/cJ mice; intraperitoneal, 10 mg/kg, 4 h dark adaptation, with: 10,000 lx photobleach, 10 min): 63 µV and 56 µV and 73 µV and 149 µV and 220 µV and 166 µV
COCc1cc(C(=O)Nc2cc([C@H]3CC[C@@H](OC(=O)NC(C)C)C3)[nH]n2)n(C)n1 — unbound C24h (OVCAR-3 xenograft, NOD/SCID gamma mice, plasma; oral, 15 twice daily, PK/PD study): 17 nM
CCc1cc(C(=O)NC)c2nccc(N3CCc4c(cc(Cn5ccnc5)cc4-c4cn(C)nc4C(F)(F)F)C3=O)c2c1 — serum cholesterol (Sprague Dawley rats; oral, 50 mg/kg once daily, 7 days): 2.3 ± 0.17 mmol/L
O=C(c1cc(Cc2n[nH]c(=O)c3ccccc23)ccc1F)N1CCN(C(=O)C2CC2)CC1 — AUC(0-12 h) (HPLC-MS/MS; human patients, plasma; oral, 25 mg tablets, cycle 1 day 0, mean, dose level -1): 4310 ng·h/mL
O=S(=O)(c1ccc(-c2ccc3nccc(Nc4ccncn4)c3c2)cc1)N1CCOCC1 — brain concentration (female BALB/c mice, brain; intraperitoneal, 10 mg/kg, 24 h, mean): 0 ng/g
O=C(O)CCCOc1ccc([18F])cc1-c1cc(-c2ccccc2C(F)(F)F)n(-c2ccccc2)n1 — radioactivity uptake (gamma counting; male ddY mice, muscle; intravenous, 2.1 MBq, 5 min): 1.02 ± 0.1 SUV
COc1cc2[nH]c(C)c(-c3ccc(-c4ccccc4)cc3)c(=O)c2cc1Cl — Papp (PAMPA; pH 7.4): < 5 ×10⁻⁶ cm/s
CC(=O)N(C)[C@H]1CCN(C(=O)c2cnc3c(c2)C[C@](C)(c2ccc(F)cc2)N3)C1 — adverse event duration (refers to: hay fever; human; oral, 30 mg once daily): 2 days
C[C@@H](O)CCOC(=O)C[C@@H](C)O — mean arterial pressure (human; oral drink, dose not given, 30 min post dose, mean): 83 mmHg
COc1ccc(C[C@@H](C)[C@@H](C)Cc2ccc(OC)c(OC)c2)cc1OC — Tmax (beagle dog male, plasma; oral, 100 mg/kg/day, day 28, median): 1 h
CCOC(=O)CNC(=O)c1ncccc1O — pKa (acidic): 7.7
FC(F)(F)c1ccc(CNc2ccc(Cc3c[nH]c4ncc(Cl)cc34)cn2)cn1 — adverse events, all grades (refers to: blood alkaline phosphatase increased; patients with advanced solid tumours; oral, dose not given, phase Ib, related to compound): 17%
O=C(O)c1c(O)c(-c2ccccc2)nc2ccccc12 — pKa (acidic): 3.9
Cn1cc(-c2cn3nccc3c(-c3cnn([C@]4(CC#N)C[C@@H](C#N)C4)c3)n2)cn1 — mean residence time (healthy human; 400 mg once daily): 8 h

Repeated from above:
COc1ccc(C[C@@H](C)[C@@H](C)Cc2ccc(OC)c(OC)c2)cc1OC — Tmax (beagle dog male, plasma; oral, 100 mg/kg/day, day 28, median): 1 h
CC(C)[C@@H](CS(=O)(=O)C(C)C)N1C(=O)[C@@](C)(CC(=O)O)C[C@H](c2cccc(Cl)c2)[C@H]1c1ccc(Cl)cc1 — AUC(0-inf) (FVB mice Abcg2 knockout, spinal cord; intravenous, 20 mg/kg): 56.9 ± 4.5 ng·h/mL
NC1(C(=O)N[C@@H](CCO)c2ccc(Cl)cc2)CCN(c2nc[nH]c3nccc2-3)CC1 — incidence of maculopapular rash (metastatic CRPC patients; 400 mg b.i.d., any grade, treatment-related, with: enzalutamide 160 mg daily): 14.3%
O=C(O)CCC(=O)O.[2H]C([2H])([2H])Oc1cc(C)c2[nH]ccc2c1CN1CC[C@@H](C2CC2)C[C@H]1c1ccc(C(=O)O)cc1 — CLss/F (human, plasma; 50 mg twice daily, day 10, multiple ascending dose): 2.16 L/h
CC(C)Nc1ccnc(Nc2ccccc2-c2ccccc2)n1 — Papp (A to B) (MDCKII-WT cells; 10 µM, pH 7.4): 17.2 ± 2.16 ×10⁻⁶ cm/s
CCN1CCN(Cc2ccc(NC(=O)c3ccc(C)c(NC(=O)c4cncc(-c5cccs5)c4)c3)cc2C(F)(F)F)CC1 — mean plasma concentration (LC-MS/MS; C57BL/6 mouse, plasma; intraperitoneal, 30 mg/kg single dose, 0.25 h): 680 ng/mL
O=C(OC(C(F)(F)F)C(F)(F)F)N1CCN(Cc2cccc(Oc3ccccc3)c2)CC1 — Ktrans (PET blocking study; rhesus monkey, brain HIP; 0.1 mg/kg, compound pretreatment, with: [18F]T-401 tracer): 0.0496 min⁻¹
O=C(CCCN1CCC(O)(c2ccc(Cl)cc2)CC1)c1ccc(F)cc1 — mean blood pressure (male Hartley guinea pigs, anaesthetized; intravenous, 0.01 mg/kg over 10 min, after infusion): 36 ± 0.1 mmHg
